Measured values pooled from the literature.
Lines come from different studies, so protocols differ. Numbers after ± are the reported error. Where no end group is shown, it is not given here. [ ]: non-standard residue; d: D form.

Molecule | tested on | assay | system | setting | scale | quantity | result
GAGUUGAGUUGAGUUGAGUUGAGUUGAGUUGAGUUGAGUUGAGUUGAGUUGAGUU (ssRNA; single strand) | mtrB full length assumed E36A (Bacillus subtilis, UniProt P19466) | filter binding | – | added: L-tryptophan 1 mM | – | Kd | 0.407 ± 0.042 µM
V[dP]IA (D-Pro2) | PC-12 | protection from Aβ1–42 toxicity, MTT | – | concentration not given, 6 h, Aβ to peptide ratio 1:1, added: Aβ1–42 2 µM | relative to: untreated cells | cell viability | 72.1%
Ac-DNCQYVYNV-NH2 (N-acetyl, C-amide) | mouse cathepsin G | inhibitor | peptide, wild type neutrophil lysate | 2.5 mM, 30 min preincubation, pH 8.0, 37 °C, added: N-Suc-AAPF-pNA 1 mM | – | inhibition | 86%
C/C(=N\NC(N)=S)c1ccccn1 | HEp-2 | cell proliferation, SRB | – | 100 µg/mL, 48 h | – | inhibition | > 75%
UGT1A9 (Homo sapiens, UniProt O60656) | Cc1ccc2oc(-c3ccccc3)c(O)c(=O)c2c1 | steady-state kinetics | – | pH 7.4, 37 °C | – | Vmax/Km | 110000 µL/min/mg
[dA]VIA (D-Ala1) | PC-12 | protection from Aβ1–42 toxicity, MTT | – | concentration not given, 6 h, Aβ to peptide ratio 1:10, added: Aβ1–42 2 µM | relative to: untreated cells | cell viability | 70%
cholecystokinin octapeptide | rat pancreatic acini | – | – | 0.03 nM, 15 min, added: 20 µM PKCθ pseudosubstrate inhibitor for 2 h | relative to: total | amylase secretion | 5.8 ± 0.9%
PRL (Homo sapiens, UniProt P01236) | – | NMR, refers to: His180 | – | 35 °C, 25 mM NaCl, apparent; independent-site fit, numbering of the source | – | pKa | 5.86
Insulin human | – | ELISA | rat, brainstem | intranasal, 20 µg per nostril, 120 min | – | concentration | 110 ± 29.3 pg/mg tissue
COc1ccc(-c2nc3ccccc3s2)cc1OCc1nnc(-c2ccccc2)o1 | – | seizure protection | albino mouse, scPTZ-induced seizure | ip, 4.0 h | – | minimal effective dose | 100 mg/kg
insulin aspart | – | euglycaemic clamp | type 1 diabetes patients | subcutaneous, 0.2 U/kg single, 2 h to 12 h, antibody quartile 4, 15.84-66.94 %B/T | – | AUC glucose infusion rate | 775 mg/kg
O=C1NC(=O)C(c2ccccc2)(c2ccccc2)N1 | – | hind limb tonic extension | albino mouse, MES-induced seizure | ip, 4.0 h | – | minimal effective dose | 30 mg/kg
Nc1ncnc2c1ncn2[C@@H]1O[C@H](COP(=O)(O)OP(=O)(O)NP(=O)(O)O)[C@@H](O)[C@H]1O | native rod CNG channel | ion current, inhibitor, patch clamp | Ambystoma tigrinum, rod outer segment patch, inside-out | 500 µM, fully activated channels, added: genistein 100 µM | – | genistein inhibition | decreased
COc1ccc(-c2nc3ccccc3s2)cc1OCc1nnc(-c2ccc(O)cc2)o1 | – | seizure protection | albino mouse, scPTZ-induced seizure | ip, 4.0 h | – | minimal effective dose | 30 mg/kg
VV[dV]A (D-Val3) | PC-12 | protection from Aβ1–42 toxicity, MTT | – | concentration not given, 6 h, Aβ to peptide ratio 1:10, added: Aβ1–42 2 µM | relative to: untreated cells | cell viability | 70%

Excerpt of the above:
Molecule | tested on | assay | system | setting | scale | quantity | result
V[dP]IA (D-Pro2) | PC-12 | protection from Aβ1–42 toxicity, MTT | – | concentration not given, 6 h, Aβ to peptide ratio 1:1, added: Aβ1–42 2 µM | relative to: untreated cells | cell viability | 72.1%
